# Measurements pooled from the literature.
# A part holds a random share of what one study measured. Positions count from the first letter of the parent shown.
# Chain of UniProt Q9LQE8 (whole entry, looked up): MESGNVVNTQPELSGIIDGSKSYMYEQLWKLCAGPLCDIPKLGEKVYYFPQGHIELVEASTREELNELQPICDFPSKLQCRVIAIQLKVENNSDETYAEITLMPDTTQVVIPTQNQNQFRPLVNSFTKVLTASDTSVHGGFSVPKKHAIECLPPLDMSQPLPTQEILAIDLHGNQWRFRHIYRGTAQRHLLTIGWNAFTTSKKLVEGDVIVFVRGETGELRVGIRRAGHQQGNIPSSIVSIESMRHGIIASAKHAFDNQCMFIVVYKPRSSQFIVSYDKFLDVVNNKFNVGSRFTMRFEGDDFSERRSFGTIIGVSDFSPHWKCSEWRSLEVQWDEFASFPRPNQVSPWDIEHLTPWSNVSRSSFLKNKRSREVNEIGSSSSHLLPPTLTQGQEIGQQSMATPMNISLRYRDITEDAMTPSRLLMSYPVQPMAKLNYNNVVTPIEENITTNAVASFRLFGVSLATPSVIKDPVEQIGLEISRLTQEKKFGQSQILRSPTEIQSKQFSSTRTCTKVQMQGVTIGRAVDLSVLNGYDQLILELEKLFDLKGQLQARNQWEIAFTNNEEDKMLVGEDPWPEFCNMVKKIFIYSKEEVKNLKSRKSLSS
# Chain of UniProt Q9ZSY8 (whole entry, looked up): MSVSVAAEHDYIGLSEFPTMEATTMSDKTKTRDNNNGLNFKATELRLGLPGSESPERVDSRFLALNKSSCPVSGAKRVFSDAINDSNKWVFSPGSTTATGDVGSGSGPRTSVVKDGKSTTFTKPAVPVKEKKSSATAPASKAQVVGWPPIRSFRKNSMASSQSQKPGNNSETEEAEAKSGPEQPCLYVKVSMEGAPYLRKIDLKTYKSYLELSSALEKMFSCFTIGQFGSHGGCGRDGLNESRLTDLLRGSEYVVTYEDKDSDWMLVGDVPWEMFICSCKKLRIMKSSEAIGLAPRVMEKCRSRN
# Chain of UniProt Q8H174 (whole entry, looked up): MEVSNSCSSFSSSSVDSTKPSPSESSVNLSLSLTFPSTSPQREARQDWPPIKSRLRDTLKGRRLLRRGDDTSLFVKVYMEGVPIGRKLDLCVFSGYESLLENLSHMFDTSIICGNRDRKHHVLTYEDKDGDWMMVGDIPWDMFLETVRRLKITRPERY
# Chain of UniProt Q93YR9 (whole entry, looked up): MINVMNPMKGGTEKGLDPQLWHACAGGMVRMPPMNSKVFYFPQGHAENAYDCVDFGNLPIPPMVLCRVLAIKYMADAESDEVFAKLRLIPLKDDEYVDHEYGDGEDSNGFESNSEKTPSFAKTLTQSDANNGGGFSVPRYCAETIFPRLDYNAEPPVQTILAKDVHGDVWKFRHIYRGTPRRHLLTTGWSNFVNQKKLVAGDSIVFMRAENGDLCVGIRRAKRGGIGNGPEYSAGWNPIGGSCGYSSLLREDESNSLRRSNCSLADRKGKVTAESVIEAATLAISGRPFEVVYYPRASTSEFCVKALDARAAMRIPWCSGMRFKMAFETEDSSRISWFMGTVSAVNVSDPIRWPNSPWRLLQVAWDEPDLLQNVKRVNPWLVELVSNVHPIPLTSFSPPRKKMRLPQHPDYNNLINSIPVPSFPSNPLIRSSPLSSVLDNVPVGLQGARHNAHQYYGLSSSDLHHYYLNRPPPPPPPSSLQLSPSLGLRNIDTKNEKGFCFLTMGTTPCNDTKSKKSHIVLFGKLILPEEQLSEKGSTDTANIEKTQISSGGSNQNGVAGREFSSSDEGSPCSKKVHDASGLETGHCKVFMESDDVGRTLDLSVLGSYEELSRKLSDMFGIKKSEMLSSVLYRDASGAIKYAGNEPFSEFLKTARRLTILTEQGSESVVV
# Chain of UniProt Q8RYC6 (whole entry, looked up): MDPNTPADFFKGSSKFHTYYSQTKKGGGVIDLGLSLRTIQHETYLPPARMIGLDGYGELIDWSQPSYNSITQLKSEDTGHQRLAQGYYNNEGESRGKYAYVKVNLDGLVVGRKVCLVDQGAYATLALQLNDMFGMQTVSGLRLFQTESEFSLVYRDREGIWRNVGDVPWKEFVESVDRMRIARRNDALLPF
# Chain of UniProt Q9FX25 (whole entry, looked up): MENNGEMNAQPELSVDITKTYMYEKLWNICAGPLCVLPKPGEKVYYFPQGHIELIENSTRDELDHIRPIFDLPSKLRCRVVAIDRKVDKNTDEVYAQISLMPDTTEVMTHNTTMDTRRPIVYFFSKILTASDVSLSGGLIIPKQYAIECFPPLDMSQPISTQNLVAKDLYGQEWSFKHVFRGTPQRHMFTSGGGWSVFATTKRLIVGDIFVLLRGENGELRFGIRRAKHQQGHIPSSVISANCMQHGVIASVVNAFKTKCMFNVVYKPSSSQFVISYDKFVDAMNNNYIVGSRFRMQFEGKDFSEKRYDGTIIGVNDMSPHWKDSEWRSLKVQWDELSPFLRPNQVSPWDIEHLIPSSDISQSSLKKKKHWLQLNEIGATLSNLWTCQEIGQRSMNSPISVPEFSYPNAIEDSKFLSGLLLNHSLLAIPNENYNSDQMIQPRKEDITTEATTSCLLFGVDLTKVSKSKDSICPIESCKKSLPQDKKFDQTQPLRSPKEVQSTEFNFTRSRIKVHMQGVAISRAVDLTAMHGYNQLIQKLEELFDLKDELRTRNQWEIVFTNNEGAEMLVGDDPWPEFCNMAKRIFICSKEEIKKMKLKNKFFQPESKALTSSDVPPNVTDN
# Chain of UniProt Q8L7G0 (whole entry, looked up): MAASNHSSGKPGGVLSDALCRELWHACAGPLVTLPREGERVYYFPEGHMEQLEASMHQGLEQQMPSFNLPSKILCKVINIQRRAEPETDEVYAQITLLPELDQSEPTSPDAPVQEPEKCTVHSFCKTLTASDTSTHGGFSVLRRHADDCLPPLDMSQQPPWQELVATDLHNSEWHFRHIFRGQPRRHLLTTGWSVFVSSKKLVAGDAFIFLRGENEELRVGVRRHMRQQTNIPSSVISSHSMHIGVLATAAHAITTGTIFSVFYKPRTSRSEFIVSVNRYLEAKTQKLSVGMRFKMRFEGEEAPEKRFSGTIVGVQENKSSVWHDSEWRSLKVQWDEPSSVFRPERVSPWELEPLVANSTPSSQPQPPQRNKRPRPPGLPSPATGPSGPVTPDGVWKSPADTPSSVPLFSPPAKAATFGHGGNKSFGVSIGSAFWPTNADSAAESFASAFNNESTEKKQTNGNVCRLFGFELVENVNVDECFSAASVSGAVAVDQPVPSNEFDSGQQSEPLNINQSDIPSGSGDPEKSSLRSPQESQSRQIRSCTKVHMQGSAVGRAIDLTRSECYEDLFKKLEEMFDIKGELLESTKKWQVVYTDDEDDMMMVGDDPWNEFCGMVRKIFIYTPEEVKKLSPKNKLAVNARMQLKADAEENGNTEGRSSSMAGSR
# Chain of UniProt Q9C7I9 (whole entry, looked up): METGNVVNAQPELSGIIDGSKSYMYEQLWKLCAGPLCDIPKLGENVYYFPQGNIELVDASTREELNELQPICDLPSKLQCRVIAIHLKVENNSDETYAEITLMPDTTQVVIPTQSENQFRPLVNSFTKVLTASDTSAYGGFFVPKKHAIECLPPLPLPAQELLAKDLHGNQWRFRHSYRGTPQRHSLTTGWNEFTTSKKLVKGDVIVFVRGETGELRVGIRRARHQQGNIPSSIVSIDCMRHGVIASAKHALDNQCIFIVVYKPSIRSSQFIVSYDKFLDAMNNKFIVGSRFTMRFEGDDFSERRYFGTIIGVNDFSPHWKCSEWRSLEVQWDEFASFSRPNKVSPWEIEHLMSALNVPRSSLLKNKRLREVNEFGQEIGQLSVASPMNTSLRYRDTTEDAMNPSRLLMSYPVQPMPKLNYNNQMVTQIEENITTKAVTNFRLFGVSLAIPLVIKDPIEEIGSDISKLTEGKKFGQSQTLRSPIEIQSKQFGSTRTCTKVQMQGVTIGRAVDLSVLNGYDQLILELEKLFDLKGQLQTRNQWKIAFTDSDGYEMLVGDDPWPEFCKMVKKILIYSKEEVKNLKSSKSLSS

# Study 1 — technique: protein binding microarray; molecule type: double-stranded DNA, one strand shown; sample: in vitro; tested at: not given; baseline: not given; direction: higher = stronger binding
# Target: Histone acetyltransferase KAT6A, both winged helices, GST fusion (KAT6A, Homo sapiens, UniProt Q92794, residues 1-181)
# Notes: 8-mer, flanks averaged, mean of 2 arrays, mostly near background
# Construct (chain): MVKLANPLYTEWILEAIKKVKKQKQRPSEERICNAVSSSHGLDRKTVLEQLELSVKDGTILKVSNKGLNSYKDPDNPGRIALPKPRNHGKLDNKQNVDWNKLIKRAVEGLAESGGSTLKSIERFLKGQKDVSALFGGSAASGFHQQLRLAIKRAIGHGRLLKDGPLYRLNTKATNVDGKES
Strand,E-score
GGAATAGA,0.0138
AGCACCCT,-0.161
TTAACTAA,0.0798
AGAGATAC,0.0117
CACTTAAA,-0.163
ATCGCGAT,0.217
CGAAGAAC,-0.0161
TCGGTAAA,0.0231
GTCCCCCA,-0.237
AGAACGTA,0.0193
TTCAAAAA,-0.101
CCCAGTAG,-0.088
GGTCCCTA,-0.0353
GCAAGCAC,-0.0503
ATCGATCG,-0.0542
GTGACTGA,-0.0818
ACTAGCAG,-0.231
ACAATCGA,-0.197
CTCGGAGC,0.0867
ATTTCGCA,-0.0877
TCCTGAGA,-0.147
GTTAACAA,0.0342
GGGTAGCA,0.131
CGTAGTTC,0.0235
CCACCTGA,-0.196

# Study 2 — Sequence: B1 (IAA20); technique: two-hybrid; notes: weak activation fusion; direction: higher = firmer interaction
# T1: itself; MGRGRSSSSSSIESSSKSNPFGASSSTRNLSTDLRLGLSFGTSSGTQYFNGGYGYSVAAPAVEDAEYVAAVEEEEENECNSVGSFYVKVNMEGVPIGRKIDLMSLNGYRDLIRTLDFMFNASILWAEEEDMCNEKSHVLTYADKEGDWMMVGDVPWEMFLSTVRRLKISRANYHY
# B1: IAA20 (Arabidopsis thaliana, UniProt O24410); chain MGRGRSSSSSSIESSSKSNPFGASSSTRNLSTDLRLGLSFGTSSGTQYFNGGYGYSVAAPAVEDAEYVAAVEEEEENECNSVGSFYVKVNMEGVPIGRKIDLMSLNGYRDLIRTLDFMFNASILWAEEEDMCNEKSHVLTYADKEGDWMMVGDVPWEMFLSTVRRLKISRANYHY
partner,how to read,positive tests
"ARF1 538-665 (Arabidopsis thaliana, UniProt Q8L7G0)",baseline: out of 4 tests,1
"ARF20 484-590 (Arabidopsis thaliana, UniProt Q9C7I9)",baseline: out of 4 tests,0
"ARF13 (Arabidopsis thaliana, UniProt Q9FX25)",baseline: out of 4 tests,0
"ARF16 570-670 (Arabidopsis thaliana, UniProt Q93YR9)",baseline: out of 4 tests,0
"T1, itself",baseline: out of 4 tests,1
"IAA32 (Arabidopsis thaliana, UniProt Q8RYC6)",baseline: out of 4 tests,2
"IAA31 (Arabidopsis thaliana, UniProt Q8H174)",baseline: out of 2 tests,0
"ARF14 497-605 (Arabidopsis thaliana, UniProt Q9LQE8)",baseline: out of 2 tests,0
"IAA27 (Arabidopsis thaliana, UniProt Q9ZSY8)",baseline: out of 2 tests,1

# Study 3 — technique: RNA Bind-n-Seq; molecule type: RNA; sample: in vitro; tested at: 365 nM; baseline: no-protein control; direction: higher = stronger binding
# Target: RNA binding protein fox-1 homolog 2, RRM domain, GST-SBP tag (RBFOX2, Homo sapiens, UniProt O43251-10, residues 100-194)
# Notes: natural RNA segment, single round, ends assumed
# Target sequence (chain): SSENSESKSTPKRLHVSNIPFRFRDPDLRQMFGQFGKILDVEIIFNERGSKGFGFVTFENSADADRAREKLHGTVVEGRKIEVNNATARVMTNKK
Strand,RBNS enrichment (R)
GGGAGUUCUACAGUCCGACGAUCGCACAGCCCUUGCCUGGAGCCCAGGAACCCCAUCCUUGCUUCAUCUCAGUUCUUCAUGGGCUUCACUCUUCCCACUCACGGAAGGGAGGUAGCUCAGGGACCUCCACUGUUGGAAUUCUCGGGUGCCAA,0.23
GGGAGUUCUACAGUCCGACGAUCAGGGUCUGGUCCCAGUUCUGACUCGGCCAUUCUUACAGCUCUUUCUGGCUUUGAGUUUGCUUGUGGAAUUUCCUGGGCAGUUGUGUUAAAUCCGCCAGGUCACGUGCAGAUGGAAUUCUCGGGUGCCAA,0.378
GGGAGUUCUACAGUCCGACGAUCUAGAACUUAGCAGAGGUUGAGCUCUGCUGCACAUUGGCAGACCAGGUCAGGAUGUCUGCAGUUGGAGAUGUAAAUAUUUUGUACAGUAAAUAAAAUGCCUACAAUAAUAAUGGAAUUCUCGGGUGCCAA,1.22
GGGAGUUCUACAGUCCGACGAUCUUUACGAUUCUCACUGACUCCCCGUCUUCCUGGCAGACACAAAUAAACCCAGUGUCAGGUCUAGGAAAUUAAUGGCUAUUCUUCCCCAGAUACAUUCUGGCUUAUUUGAGUGGAAUUCUCGGGUGCCAA,0.237
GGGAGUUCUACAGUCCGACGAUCAUGUGUGUCUUUCACAGGAGUGACUGCUGCGUGUAAGAGAGCUGUCAAUCAAACUUAUGGUCAUUUUCUUUGCUAACAACCAAUGCUUCACUGUGCCAAAAAAAAAAAAAUGGAAUUCUCGGGUGCCAA,1.21
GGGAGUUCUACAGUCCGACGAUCAGAAAUAAUCUGUCUUUAGUAUACAGAAUGGUUCUUUGUUUGCCUGAAAAGUAUAAGAAUACAAUUUACUUUUCCCAAACUCUUUUUCCUUAUUUUUUUCUUUCAAAUAAUGGAAUUCUCGGGUGCCAA,0.665
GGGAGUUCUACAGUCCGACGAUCUAGAGAAACAGCACAAUCAAUUCCAAAUGGUAUGAGAUGGAUUGGAAGUGGCCAGCAGCAAGUUCUGGUGACGGGACAGAGUGGCCUUGGAUGUCUUUGGUAUUUUCUGUUGGAAUUCUCGGGUGCCAA,0.609
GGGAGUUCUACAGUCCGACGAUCCCUGGAGAGAGAAGUUGCUUGACGGAUGCCACUUGUCAGGACAGUAUGUGAGUGUCUGGAGACAGCAUAGCUGACCCCAAUCCCCCAGGGCUGAGGACCCCUCCAGGCCCUGGAAUUCUCGGGUGCCAA,0.464
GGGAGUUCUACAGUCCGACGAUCGAGACACGGGCCACCAUGAACUUGGCACUGGCUGGUGACAUCCUUGCUGCAGGGCAGGAUGCCCACUGUCAGCUCCUGCGCUUCCAGGCACAUCAACAGCAGGGCAACAAUGGAAUUCUCGGGUGCCAA,0.215
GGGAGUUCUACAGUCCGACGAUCAAACUUCAGAGAAGAACCUUAAAGCAGACCAUCCAUUUUUGCAUGCUCUCUUCUAAGUAGAAUGUUCAAUGUAACUAAAACUAAAAUUGCAUGUCAAAGAGACCUAGGUUUGGAAUUCUCGGGUGCCAA,9.17
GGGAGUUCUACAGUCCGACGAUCUUUCUGUGCACUUAACAAUGGAACCCAAACAGAAGAGAAUAAAGCCUUGAUACCAAAAUUGGGAAAGAACAUGUGUCCAUUUGGACCAAACGUUGUUGGUUUUUAAAAAAUGGAAUUCUCGGGUGCCAA,1.43
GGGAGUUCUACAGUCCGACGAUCAUAUUUAUUGCAAAGCAAGCCUGGUCAUACUUGCUGCUUGAGAAGCUGAGGCAGGAGGAUCAUGAAUUCAAAGCCAGCCUGGGAUACAUAGCAAGUUUCAGGGCAGUGUGUGGAAUUCUCGGGUGCCAA,0.487

# Study 4 — target: CCND3, cyclin fold, Cln2 fusion (human); technique: yeast growth competition, sequencing; sample: yeast; notes: weak parent motif; baseline: not given; direction: higher = stronger binding
# Starting sequence: WEE1 docking peptide (human); CTLRQKLIFSPCS
Variant,normalised enrichment score
CTLRQKLIFSPAS [C12A],0.68
CTLRQKLIFSACS [P11A],-0.248
CTLRQKLIFAPCS [S10A],0.278
CTLRQKAIFSPCS [L7A],0.11
CTLRQKLIASPCS [F9A],0.0633
CTLRQKLAFSPCS [I8A],-0.0645
CTLAQKLIFSPCS [R4A],0.0152

# Study 5 — target: FOSB, bZIP domain (human); technique: DHFR protein complementation; sample: yeast; baseline: wild-type JUN-FOS pair; direction: higher = stronger binding
# Notes: single substitutions, most at no-binding floor
# Starting sequence: JUN, bZIP domain (human); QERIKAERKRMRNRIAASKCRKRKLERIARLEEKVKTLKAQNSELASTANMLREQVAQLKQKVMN
Variant,binding fitness [natural log]
L38H,-1.44
K36P,-1.36
Q41P,-1.53
L38P,-1.33
S43P,-1.22

# Other studies, line by line
Substance,target,test,system,setting,how to read,endpoint,value
"PhoQ, residues 284 288 289 292 302 303 TGYLSA","PhoP, residues 12 14 15 18 19 HEGLL (Escherichia coli, UniProt P23836)","Sort-seq, measured: YFP reporter",E. coli,"PhoQ-PhoP variant library, together with: 10 µM Mg2+","baseline: high Mg2+ state, higher = stronger signaling",fold induction,6.65

# Repeated from above (study 1):
Strand,E-score
GTTAACAA,0.0342
AGAACGTA,0.0193
GGTCCCTA,-0.0353
CGAAGAAC,-0.0161
AGCACCCT,-0.161
CGTAGTTC,0.0235
CCCAGTAG,-0.088
CTCGGAGC,0.0867
